Published values from different studies.
Numbered parts are unrelated; each lists some results of a single study.

Sample 1
Organism: Saccharomyces cerevisiae
Read-out: binding
Technique: competitive growth deep sequencing
Form: peptide
Strain: cyclin D3-Cln2 fusion strain
Concentration: concentration not given
Setting: tiling library, Cln2 subtracted
Reading: direction not given
| Molecule | growth enrichment score |
| --- | --- |
| PPKPLKKLRFDIEGSD | -0.34 |
| GPVKLEFDVSDGAT | -0.0508 |
| LFVPQRKLEVSTEDVH | -0.954 |

Sample 2
Target: Hepatocyte nuclear factor 3-alpha (Foxa1, Mus musculus, UniProt P35582, residues 1-468, full length assumed)
Technique: EMSA with sequencing
Form: double-stranded DNA, one strand shown
Medium: in vitro
Concentration: 10 and 20 nM
Setting: whole designed probe, mean of two concentrations, ends assumed
Baseline: negative control set to 0
Reading: higher = stronger binding
All sequences stand within: GTGAGCGGTGCCCATTGATGGGGAAC … TTTCACTGGGATCGTGGGGAC
Construct (chain): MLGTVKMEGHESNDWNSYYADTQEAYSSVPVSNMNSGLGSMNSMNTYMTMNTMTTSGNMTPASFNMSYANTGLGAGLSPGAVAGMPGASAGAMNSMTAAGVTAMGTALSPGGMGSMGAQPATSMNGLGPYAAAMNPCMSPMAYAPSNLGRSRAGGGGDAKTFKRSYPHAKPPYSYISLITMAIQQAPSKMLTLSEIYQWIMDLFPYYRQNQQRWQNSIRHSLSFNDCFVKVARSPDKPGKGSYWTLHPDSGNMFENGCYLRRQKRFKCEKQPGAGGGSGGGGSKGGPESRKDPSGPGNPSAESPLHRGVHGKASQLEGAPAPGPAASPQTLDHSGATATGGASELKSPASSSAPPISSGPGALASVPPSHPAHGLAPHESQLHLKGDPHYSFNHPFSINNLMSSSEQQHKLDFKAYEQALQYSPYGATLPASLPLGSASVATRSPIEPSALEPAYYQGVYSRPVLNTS
| Sequence | normalised bound fraction [ratio] |
| --- | --- |
| ATCTTCCCCCTCTTCCTTGCCCCACCAGCTCACCTTCCCGGGTTATTTGCAGATAGGAAAATAAATAAAGCCGGCATTCGTTAACCCTCTTCACGCGCATACTGCCAGAGCAAACAGATCTAACATGGTCCTTTGGCGACGCCAGGCTCCGGGAGAGCAAAGCACCGTGTCAGGGCCATGATCCGGGGTGGCC | 0.397 |
| GAAGGAAATAATGGAGCCAACCATGCATATAACCTCAGGGAGAACATTCTAGGTAGAGGGAACAGCAAGTGCAAAGGCCCTGAAGTGGGGGTTTGTTTACCTTCTGCACACAGTTGCACAATGGCCAGTACAATTGGAATGGATGGGAAATGTAAAAGAGAGAAGTTGAAAAGGCCAGGTGCAGTGGCTCATG | 0.411 |
| TAGCAGGTCACTGCCAGTCACGAGGGCAGAGAGACCCAAAGGATCAGAGAACAGCTCTGAGCAGGTCATGCGCAGTGCCAGAAGGAAAGCCTTTGTTTACAGAGGGAAAGATCCTGCACCTTGAAGTGAGGCATTAAAGAGTAGAGGGGCTTTGCACCTGCATCCTAAGCCTCTTGGTTCACCACTAAGCCGC | 0.403 |
| ATCTTCCCCCTCTTCCTTGCCCCACCAGCTCACCTTCCCGGGTTATTTGCAGATAGGAAAATAAATAAAGCCGGCATTCGTTAACGCAGTTCTGGCGCAAACTGCTGTTTGCTCTGCATCTAACATGGTCCTTACGCGAGGCGTGGCTCCGGGAGAGCAAAGCACCGTGTCAGGCGCATGATCCGGGCTCGCC | 0.357 |
| ATCTTCCCCCTCTTCCTTGCCCCACCAGCTCACCTTCCCGGGTTATTTGCAGATAGGAAAATAAATAAAGCCGGCATTCGTTAACCCTCTTCTGGCGCAAACTGCTGTTTGCTCTGCATCTAACATGGTCCTTACGCGAGGCGTGGCTCCGGGAGAGCAAAGCACCGTGTCAGGCGCATGATCCGGGCTCGCC | 0.353 |

Sample 3
Target: Prothrombin, mature alpha-thrombin (F2, Homo sapiens, UniProt P00734)
Technique: aptamer microarray, sandwich
Form: DNA with 2'F-ANA
Medium: in vitro
Concentration: 200 nM
Setting: whole 15-mer aptamer, many near background
Together with: Cy3 exosite-II aptamer, 400 nM
Reading: higher = stronger binding
Sequence: GGTTGGTGTGGTTGG
| Modification | mean fluorescence intensity |
| --- | --- |
| 2'F-ANA at 1 2 3 4 5 6 7 9 14 | 48.4 a.u. |
| 2'F-ANA at 1 3 4 5 9 10 12 13 14 | 51.1 a.u. |
| 2'F-ANA at 2 3 4 7 8 11 13 | 525 a.u. |
| 2'F-ANA at 1 6 7 9 10 12 14 15 | 58.4 a.u. |
| 2'F-ANA at 1 2 4 5 7 8 9 11 12 14 15 | 50.3 a.u. |
| 2'F-ANA at 2 5 6 7 8 11 12 15 | 120 a.u. |
| 2'F-ANA at 2 4 6 9 10 14 | 71.5 a.u. |
| 2'F-ANA at 2 3 4 6 8 9 10 11 13 | 158 a.u. |
| 2'F-ANA at 3 4 8 10 | 295 a.u. |
| 2'F-ANA at 1 2 3 4 5 6 8 10 11 15 | 47 a.u. |
| 2'F-ANA at 3 5 9 10 11 13 15 | 54.2 a.u. |
| 2'F-ANA at 2 8 9 11 12 14 15 | 168 a.u. |
| 2'F-ANA at 1 2 5 6 7 8 9 10 11 12 13 | 81.1 a.u. |
| 2'F-ANA at 2 3 4 5 6 10 11 14 15 | 51 a.u. |
| 2'F-ANA at 1 2 3 4 6 9 11 12 13 14 15 | 58.2 a.u. |
| 2'F-ANA at 1 2 4 6 7 10 11 12 13 | 63.5 a.u. |
| 2'F-ANA at 3 6 7 8 15 | 1050 a.u. |
| 2'F-ANA at 1 3 4 5 7 8 9 11 | 58.6 a.u. |

Sample 4
Target: Histone acetyltransferase KAT6A, winged helix 2, GST fusion (KAT6A, Homo sapiens, UniProt Q92794, residues 85-181)
Technique: protein binding microarray
Form: double-stranded DNA, one strand shown
Medium: in vitro
Concentration: not given
Setting: 8-mer, flanks averaged, mean of 2 arrays, mostly near background
Baseline: not given
Reading: higher = stronger binding
Construct (chain): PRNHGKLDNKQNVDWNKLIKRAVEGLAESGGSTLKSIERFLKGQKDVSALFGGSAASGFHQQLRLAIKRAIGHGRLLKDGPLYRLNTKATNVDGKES
| Sequence | E-score |
| --- | --- |
| ACCAAGCC | -0.0436 |
| ATATTGTA | -0.0205 |
| GTACCGCA | 0.223 |
| TCTTCTCA | 0.159 |
| ATGATAGA | 0.00786 |
| TCCAACCA | -0.037 |
| GCGGCTTA | 0.0991 |
| TTGGCAAA | 0.117 |
| ATCATCGC | 0.0657 |
| ATTCGAGC | -0.0106 |
| CGCGCTCC | 0.231 |
| AACTTGAG | -0.173 |
| CCTCGAAC | -0.0362 |
| GTAGAGTA | -0.00932 |
| CGACATCC | 0.0298 |
| GCGATGCC | 0.109 |
| ACGGCACG | 0.154 |

Sample 5
Target: RNA binding protein fox-1 homolog 2, RRM domain, GST-SBP tag (RBFOX2, Homo sapiens, UniProt O43251-10, residues 100-194)
Technique: RNA Bind-n-Seq
Form: RNA
Medium: in vitro
Concentration: 365 nM
Setting: natural RNA segment, single round, ends assumed
Baseline: no-protein control
Reading: higher = stronger binding
All sequences stand within: GGGAGUUCUACAGUCCGACGAUC … UGGAAUUCUCGGGUGCCAA
Construct (chain): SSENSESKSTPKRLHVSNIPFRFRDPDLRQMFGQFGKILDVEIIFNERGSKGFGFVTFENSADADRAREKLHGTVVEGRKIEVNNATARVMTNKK
| Sequence | RBNS enrichment (R) |
| --- | --- |
| GGUAUACUCAGUAUGUCCUAGUAAGGAAGGCUUUCCACUCUACUGGCUCCUUAAGAAGCAAAAGUAGGUUAAAUUUUAUACUUCACUGACUAGGGUCUUCUCUCUCCCCU | 0.194 |
| GUGAUAGCGUGAAGAGCUUUUCUCAUUAGAAACCAAAUGGUGUAAAUAUUUUAUUUGAUAAAGAUAGUUGAUGGUUUAUUUUAAAAGAUGCACUUUGAGUUGCAAUAUGU | 3.35 |
| GAGGGAAGUUUGGCUAAUGGGCUGAUCGAAUGAGCUAACAUGGGCUGGGGCAGGCAACUACCCGUCCUCAAGCCCGCUGUUUCUGUCUCCCUACCAGACAGGCCUCUGGG | 0.299 |
| AGAAGAUCUUACAGGAGUUCUUUGCUUGAAUCCGUUCUAACACCCGCGGCAGCUGCACGCGCUCACAGAAGGUGGAGGUUACUUGCCCAGGUACAGACGACCUCGGGGCA | 0.768 |
| UCCUGAGCCCUGCUCUCCUCUCCUCCAUCCUGUCCCAAUCUGUGUCCCCCUUGACCUGUGGCUCCAGGCCAUCGGCAUUGGUGCCUACGUGUCCAGCCACUGCCUGCUGA | 2.35 |
| AAUAUUUGCUACUAGACUGUUCAUUUCUCUCUGACAUGUUUGUUGAAUGAAUAAAUAAUUUGAAACUCUACUUGAUUUAUGGAGGGUGGAAAGGGGAGGGAUGGAGAAUC | 0.917 |
| CCAGGUUAAACAUUUGGAAUCUUAUAAUGUUACUUGCUUUUUGAUAGAUAAUAGUGAAAUAAAUUCAGCUUUGCCAUUGCUGGAGUUGUCAAAAUUCCACAGUAAUUAAA | 0.739 |
| CACCGCUGGGACGGAUUCAGUGCCAGGCUGGGCGCAAGGCCCCUUACCAGUGGGCUGCUGCUCUGUGGCUGAGGGGCCAUCUAUGCAGAGUCUGUCCCUAUUUAUGUAUG | 0.966 |

For quick reference, copied from above (sample 5):
| Sequence | RBNS enrichment (R) |
| --- | --- |
| CCAGGUUAAACAUUUGGAAUCUUAUAAUGUUACUUGCUUUUUGAUAGAUAAUAGUGAAAUAAAUUCAGCUUUGCCAUUGCUGGAGUUGUCAAAAUUCCACAGUAAUUAAA | 0.739 |
| AGAAGAUCUUACAGGAGUUCUUUGCUUGAAUCCGUUCUAACACCCGCGGCAGCUGCACGCGCUCACAGAAGGUGGAGGUUACUUGCCCAGGUACAGACGACCUCGGGGCA | 0.768 |
| GGUAUACUCAGUAUGUCCUAGUAAGGAAGGCUUUCCACUCUACUGGCUCCUUAAGAAGCAAAAGUAGGUUAAAUUUUAUACUUCACUGACUAGGGUCUUCUCUCUCCCCU | 0.194 |
| AAUAUUUGCUACUAGACUGUUCAUUUCUCUCUGACAUGUUUGUUGAAUGAAUAAAUAAUUUGAAACUCUACUUGAUUUAUGGAGGGUGGAAAGGGGAGGGAUGGAGAAUC | 0.917 |
| CACCGCUGGGACGGAUUCAGUGCCAGGCUGGGCGCAAGGCCCCUUACCAGUGGGCUGCUGCUCUGUGGCUGAGGGGCCAUCUAUGCAGAGUCUGUCCCUAUUUAUGUAUG | 0.966 |
| GAGGGAAGUUUGGCUAAUGGGCUGAUCGAAUGAGCUAACAUGGGCUGGGGCAGGCAACUACCCGUCCUCAAGCCCGCUGUUUCUGUCUCCCUACCAGACAGGCCUCUGGG | 0.299 |
| GUGAUAGCGUGAAGAGCUUUUCUCAUUAGAAACCAAAUGGUGUAAAUAUUUUAUUUGAUAAAGAUAGUUGAUGGUUUAUUUUAAAAGAUGCACUUUGAGUUGCAAUAUGU | 3.35 |
